# Assay results of several laboratories.
# Protocols differ between the studies behind these lines. Several values in a cell are separate wells, animals, samples, runs or records.
# Target: MAP kinase-activated protein kinase 2 (MAPKAPK2, Homo sapiens, UniProt P49137)
SMILES,assay,setting,scale,endpoint,value
COc1ccc(O)cc1-c1c[nH]c2ncc(-c3cncc(C(=O)N(C)C)c3)cc12,"binding, competition with immobilised ligand",0.2 µM,,inhibition,-0.41%
COc1c(Cl)cccc1Nc1c(-c2ccncc2C#C[C@@]2(C)CCCN2C(=O)/C=C/CN(C)C)[nH]c2c1C(=O)NCC2,"binding, competition with immobilised ligand",3 µM,,remaining binding,100%
O=C(O)CCC(=O)c1cccc(NS(=O)(=O)c2c[nH]c3ncccc23)c1,"kinase activity, radiometric",10 µM,,remaining activity,101%
COc1ccc(C(=O)/C=C/c2ccccc2-c2c[nH]c3ccc(C#N)cc23)c(O)c1,"enzyme activity, inhibitor",20 µM,,inhibition,-10%
CNC(=O)C[C@H](Cc1ccc(C#N)cc1)NC(=O)c1cc(-c2ccc(CN[C@H](C)c3ccc(C)cc3)o2)ccc1Cl,"enzyme activity, inhibitor",1 µM,,activity vs control,111%
NC(=O)[C@@H](O)C[C@H]1CCc2sc3ncnc(O[C@H]4CC[C@H](N5CCOCC5)CC4)c3c21,"enzyme activity, inhibitor",10 µM,,inhibition,1%
COc1cc(Nc2nccc(-c3cnn4nc(OC)ccc34)n2)cc(C(F)(F)F)c1,"binding, competition with immobilised ligand",1 µM,,remaining binding,100%
Nc1nc(Nc2ccccc2)sc1C(=O)c1ccccc1,"enzyme activity, inhibitor",10 µM,,remaining activity,98%
C=CC(=O)Nc1cccc(-c2cnc3[nH]cc(C(=O)NC(C)(C)C)c3n2)c1,kinase activity,0.1 µM,,inhibition,3% and 9%
Cc1cccc(O[C@H]2CCC[C@@H](C(C)CNCc3ccncc3)C2)c1 (relative stereo),"enzyme activity, inhibitor",10 µM,,inhibition,-12%
CN1CCN(Cc2ccc(NC(=O)c3cccc(C#Cc4cnc(N)c5ncccc45)c3)cc2C(F)(F)F)CC1,"cell-free assay, competition with immobilised ligand",0.5 µM,,remaining binding,100%
O=C(Cc1ccc(OCc2ccccc2)cc1)NC1(C(=O)O)CCN(C(=O)c2ccc(-c3cccc(Cl)c3)cc2)CC1,"enzyme activity, inhibitor",10 µM,,activity vs control,106%
CNS(=O)(=O)Nc1nccc(Cc2c(C)c3ccc(Oc4ncccc4F)cc3oc2=O)c1F,"binding, competition with immobilised ligand",10 µM,,remaining binding,100%
CN1CCN(Cc2ccc(-c3ccc(CO[C@H]4CCC[C@@H]4NC(=O)c4cc(-c5cnn(C)c5)cnc4N)cc3)cc2)CC1,"enzyme activity, inhibitor",0.1 µM,,inhibition,3% and 8%
CNC1C[S+]2CC[S+]3CC[S+](C1)[Ru-4]321([N]=C=S)[n]2c3ccc(OC)cc3c3c4c(c5cc(F)c[n+]1c5c32)C(=O)NC4=O (stereo not drawn),KinomeScan,0.1 µM,relative to: untreated,remaining binding,90%
Cc1[nH]nc2c1N=C(c1ccccc1Cl)c1cnc(N3CCOCC3)cc1N2,"enzyme activity, inhibitor",0.5 µM,,inhibition,17.3%
Cc1cccc(-c2ccc3nc(NC(=O)C4CCCO4)nn3c2)c1 (stereo not drawn),"enzyme activity, Dundee kinase panel",10 µM,,remaining activity,95%
CCn1cc(C(=O)O)c(=O)c2c(N)c(F)c(NC3CCCCC3)cc21,kinase activity,"0.1 µM, with: ATP at Km",,inhibition,1.8%
Cc1cccc(-c2ccc3nc(NC(=O)C4CCOCC4)nn3c2)c1,"enzyme activity, Dundee kinase panel",10 µM,,remaining activity,93%
CCN1CCN(Cc2ccc(C(=O)Nc3ccc(C)c(NCc4cnc5[nH]ccc5c4OC)c3)cc2C(F)(F)F)CC1,"binding, competition with immobilised ligand",1 µM,,remaining binding,100%
COc1ccc(NC(=O)Nc2ccc3c(c2)C(=O)N(C(C)CO)CC(C)C(CN(C)Cc2ccc4c(c2)OCO4)O3)cc1 (stereo not drawn),"binding, competition with immobilised ligand",10 µM,,remaining binding,80%

# For quick reference, copied from above:
SMILES,assay,setting,scale,endpoint,value
Cc1cccc(-c2ccc3nc(NC(=O)C4CCCO4)nn3c2)c1 (stereo not drawn),"enzyme activity, Dundee kinase panel",10 µM,,remaining activity,95%
CCn1cc(C(=O)O)c(=O)c2c(N)c(F)c(NC3CCCCC3)cc21,kinase activity,"0.1 µM, with: ATP at Km",,inhibition,1.8%
